Measurements collected from several papers.
Each numbered part is a random draw from the data of one study; scales do not carry over between parts.

Series 1 — technique: protein-binding microarray; form: hairpin DNA; matrix: in vitro; concentration: not given; reference: not given; reading: higher = stronger binding; endpoint: median fluorescence
Target: Runt-related transcription factor 3, Runt domain (RUNX3, Homo sapiens, UniProt Q13761, residues 53-186)
UniProt Q13761, sequence (53-186, looked up): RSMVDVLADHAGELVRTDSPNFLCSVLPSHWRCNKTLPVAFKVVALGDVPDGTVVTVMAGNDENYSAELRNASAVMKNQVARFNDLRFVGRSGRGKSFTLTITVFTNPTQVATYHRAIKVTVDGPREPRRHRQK
Setting: whole hairpin DNA, median over replicate spots
CTCAGTTCTGTGGGTTGGACTCCTGTCCAACCCACAGAACTGAGACACTC: 4130 a.u.
GAGGCCGGTTGTGGTTGGCCTCCTGGCCAACCACAACCGGCCTCACACTC (5mC at 38): 6110 a.u.
GAGGCCTGACGCGGTTGGCCTCCTGGCCAACCGCGTCAGGCCTCACACTC: 5310 a.u.
GAGGCCTGTCGCGGCTGGCCTCCTGGCCAGCCGCGACAGGCCTCACACTC: 5830 a.u.
CTCAGGTCTGTGGGCTGGACTCCTGTCCAGCCCACAGACCTGAGACACTC (5mC at 39): 4390 a.u.
GAGGCGTGTCGCGGTTGGCCTCCTGGCCAACCGCGACACGCCTCACACTC (5mC at 39): 6450 a.u.
GAGGCCTGTTGCGTTTGGCCTCCTGGCCAAACGCAACAGGCCTCACACTC: 4430 a.u.
GAGGCCTGTTGTGGCGGGCCTCCTGGCCCGCCACAACAGGCCTCACACTC: 5010 a.u.
CTCAGCTCTGTGGGCTGGACTCCTGTCCAGCCCACAGAGCTGAGACACTC: 4300 a.u.
GAGGCCTCGTGTGGTTGGCCTCCTGGCCAACCACACGAGGCCTCACACTC (5mC at 8): 5030 a.u.
GAGGCCTGTCGCGGTTGGCCTCCTGGCCAACCGCGACAGGCCTCACACTC (5mC at 10 34): 7660 a.u.
GAGGCCCAACCGCGACAGCCTCCTGGCTGTCGCGGTTGGGCCTCACACTC (5mC at 13 31): 9230 a.u.
GAGGCCCAACCGCCGCAGCCTCCTGGCTGCGGCGGTTGGGCCTCACACTC: 6280 a.u.
GAGGCCCGTTGCGGTTGGCCTCCTGGCCAACCGCAACGGGCCTCACACTC (5mC at 37): 9070 a.u.
GAGGCCCAACCGCAACAGCCTCCTGGCTGTTGCGGTTGGGCCTCACACTC (5mC at 16): 11100 a.u.
GAGGCCTGTTGCGGTTGGCCTCCTGGCCAACCGCAACAGGCCTCACACTC (5mC at 32): 4870 a.u.

Series 2 — technique: competition protein-binding microarray; form: double-stranded DNA, one strand shown; matrix: in vitro; concentration: 2 µM; added: Cbf1 competitor, 0.05 µM; reading: higher = stronger binding; endpoint: fluorescence intensity; shared flanks, not repeated: … GTCTTGATTCGCTTGACGCTGCTG
Target: Phosphate system positive regulatory protein PHO4, full length, GST-tagged (PHO4, Saccharomyces cerevisiae, UniProt P07270, residues 1-312)
Setting: whole 60-bp probe, lowest competitor level
Residues (chain): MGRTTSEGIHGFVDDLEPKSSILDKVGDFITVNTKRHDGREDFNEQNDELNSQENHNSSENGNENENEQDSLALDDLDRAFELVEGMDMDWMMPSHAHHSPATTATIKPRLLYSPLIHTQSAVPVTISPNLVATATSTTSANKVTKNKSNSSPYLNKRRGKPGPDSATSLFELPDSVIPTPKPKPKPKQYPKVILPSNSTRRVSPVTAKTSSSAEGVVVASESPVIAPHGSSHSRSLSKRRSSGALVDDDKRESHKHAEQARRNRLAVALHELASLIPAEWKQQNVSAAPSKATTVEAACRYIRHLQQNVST
TTCTAGTTATTGTTGCTCGTGCAAAGATGTGCTGTG: 9130 a.u.
TGCGCAACAACTTGAACGGTGGGTGTATGTCTAGAA: 4270 a.u.
AAAGCGGTAATTTCACACGTGTTTTCACATATCTAT: 18000 a.u.
CTTTCCCGATCTTGCAGAGTGGGTGTAGCACATTTG: 4610 a.u.
TCAAAAAAGAAACTACACGTGCTTTTAATATACCGA: 16300 a.u.
CTTTCCCGATCTTGTCACCAGACTTTAGCACATTTG: 4010 a.u.
GACTAGGTTTGAAAGCACGTTGGAAGACATACGGAA: 13400 a.u.
CGAATACGGGCGGCATTCGTGATGGCAATAGATTTA: 4530 a.u.
GTCTTGTCTCATTGTTCAGTGGGTGTCCCCACTTCA: 4880 a.u.
TGCGTATTCGCCCGACACGTGATGGGCGCAGATTGG: 14400 a.u.
TTGTAGTTATATACCCACGTTTGCTGGGTCTAACGA: 10100 a.u.
CGGGGTTAAGTTTTTCACGTGGTTTGCTTGCAGCAG: 12300 a.u.
AAATTACTAAGTTGGCAGGTGGGTGACGCCGTATGA: 5940 a.u.
ATCAAGGTGCCTTGCCACCTGATCTATCTTTGATCG: 4450 a.u.
GTCTTGTCTCATTGAGGCGTGGGTGTCCCCACTTCA: 7320 a.u.
CGGGGTTAAGTTTGTCACCGAACTTGCTTGCAGCAG: 3150 a.u.
AAAGCGGTAATTTGTCACCTTACTTCACATATCTAT: 3090 a.u.
CTAACGAAGGTTTGCTTAGTGGGTGACAAGCCAAGT: 3590 a.u.
CATACCCAACCTTTTCACGTGACATAAGATATTTGT: 13400 a.u.
CTAACGAAGGTTTGTCACAGAACTTACAAGCCAAGT: 2800 a.u.
AAAGCGGTAATTTGTCACAACACTTCACATATCTAT: 4220 a.u.

Series 3 — technique: protein-binding microarray; form: double-stranded DNA, one strand shown; matrix: in vitro; concentration: 940 nM top; setting: 60-bp whole probe; added: salmon DNA 0.4 mg/ml; reference: random background probes; reading: higher = stronger binding; endpoint: fitted relative affinity; shared flanks, not repeated: GCCTAGCAC … GTCTTGATTCGCTTGACGCTGCTG
Target: Interferon regulatory factor 5, full length, phosphomimetic (IRF5, Homo sapiens, UniProt Q13568-2, residues 1-514, S451D/S453D/S456D/S462D)
TTAGGTCTCGGGTATCGGTTAGTGCTA: 4.27 z-score
TTACGTTTCGGGTTTCGGTTAGTGCTA: 9.16 z-score
TTAGGTTTCGACAATGGGTTAGTGCTA: 8.29 z-score
ACCTGAGTCCCTATCTCCTCGTGCTAG: 0.335 z-score
TTAGATTCCAGTTTCGAGTAGTGCTAG: 4.08 z-score
GACGGTATCGACTATCGAGACGTGCTA: 4.22 z-score
AGAGTAAATTAAGTTAGAACGTGCTAG: -0.363 z-score
TCACTTTCCCAGCCTGGGACTGTGCTA: 0.517 z-score
ATGAGTCTCAAAATTAGAGAGTGCTAG: 0.512 z-score
CTAGATCTCAGTTTCGATTAGTGCTAG: 8.35 z-score
GACGATTTCAATCTCGAGACGTGCTAG: 0.243 z-score
GACGATTTCAGTATCGAGGCGTGCTAG: 2.22 z-score
TTAGATCTCAGTTTCGATTAGTGCTAG: 8.63 z-score
GACGAACTGAGTCTCTAGACGTGCTAG: -0.547 z-score
TTAGATATCGGGACCGGATTAGTGCTA: 0.318 z-score
TCAACTCTCTAATTTTGACTGTGCTAG: 0.31 z-score
GACGATTTCGGGCCTGGAGACGTGCTA: -0.239 z-score
GACGATTTCGAGACTGGAGACGTGCTA: 0.176 z-score
GGTGATTTCAGTTTTCTTTTGTGCTAG: 1.07 z-score
TTAGGACTGGACTATCGGTAAGTGCTA: -0.327 z-score
TTTGCTTTCTTTTTGCACTCGTGCTAG: 1.38 z-score
TCAAGTCTCAAAATTAGACTGTGCTAG: -0.0923 z-score
TCATATACCTGTATATCACTGTGCTAG: 0.227 z-score
TAAGGTCTCCTACTGCTTTAGTGCTAG: -0.0765 z-score

Series 4 — technique: protein binding microarray; form: double-stranded DNA, one strand shown; matrix: in vitro; concentration: not given; reference: not given; reading: higher = stronger binding; endpoint: E-score
Target: Histone acetyltransferase KAT6A, winged helix 2, GST fusion (KAT6A, Homo sapiens, UniProt Q92794, residues 85-181)
Setting: 8-mer, flanks averaged, mean of 2 arrays, mostly near background
Construct (chain): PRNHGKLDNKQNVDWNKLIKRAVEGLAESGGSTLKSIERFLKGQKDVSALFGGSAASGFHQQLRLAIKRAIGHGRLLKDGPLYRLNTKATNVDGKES
ATCGCTTG: -0.0303
ATATCGAA: 0.107
AACAATTA: -0.0756
ACTCAGGA: -0.0696
CAAAGACG: -0.0742
GCAATTGC: 0.138
CATTAGGG: -0.111
CGTCTGTA: 0.00569
ACATCGTG: -0.00827
ATCGGTTA: 0.0314
TAATGAGA: -0.126
GTATGCTA: 0.00547
ATAGTTGG: -0.0993
GGTAAGTA: -0.165
CTAGGGGC: -0.0709
ATTACCCG: -0.0362
AAGTGGTG: -0.0704
ACTTCGAC: 0.0838
AATACAGG: -0.0847
ACGTGAAG: -0.124

Series 5 — technique: RNA Bind-n-Seq; form: RNA; matrix: in vitro; concentration: 365 nM; reference: no-protein control; reading: higher = stronger binding; endpoint: RBNS enrichment (R)
Target: RNA binding protein fox-1 homolog 2, RRM domain, GST-SBP tag (RBFOX2, Homo sapiens, UniProt O43251-10, residues 100-194)
Setting: natural RNA segment, single round, ends assumed
Shared flanks, not repeated: GGGAGUUCUACAGUCCGACGAUC … UGGAAUUCUCGGGUGCCAA
Target sequence (chain): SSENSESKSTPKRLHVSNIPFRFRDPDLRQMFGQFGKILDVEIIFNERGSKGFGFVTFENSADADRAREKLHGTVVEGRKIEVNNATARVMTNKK
CUCGUUUUCCCUGAUCCGUGGUGUUGCAGUCCGUUGUCACCAGCCUUGUUUCUAGUGUGUAUAUAUGUCGCCCCCGUGAUGCAUAUAUACACAGGUAUUAAAUAUAUCGC: 0.33
GCAGAGACCUGGGACUCUGUAUUUCUAUAGUUCUCCUGGCAGAGCCUUUGAGAAUGGGGAGAAACAGCCUGGGCUGGGGCUACAGGUCUGUCACUAUGCUCUCUUGCCUU: 0.656
CACUAACAAAGGGGGCUUUUCUUCCAUAGUCUAUUCUGUAUAAAUAAUAAGUUGCCUGUUCCAGAAGUCUAACCCUAACCCCUCUGGUUGUCUGGGACCCCUUUCUGUGC: 1.22
AGAACUGUGGUGGGAGACCAAUACUCUUAACAGACUGUCCAGUAGGUAUCGGGAAUCCUUGAACAAUUUGGGUUUUCUUCCCCUUUUUUCUCUUUCGUGCUGCAUGCACA: 5.01
CCCUCCACAUCUGAGGUGGCUCAUUCCCAUCACACACAGAUUGUCCUGGUGUUCAUUUCAAGGCCAGUGUUCAGCAGCAGCGUUUGGAAAGCAGGUUCUGUGGGACCCCC: 0.226
UUUUCCUCUCCAGAGGGAUCAGGGUCCUCUUAGGGAGUGACGGGCUUUUCAUAUAUUUUUGCUGAAGAAUAUAUGGAAAGGGUGGCAUUUGCGUCACGUGGACCAGGGAC: 0.493
GCAAGGUGCUUACUGUCACCUGAUGCCAUACACAUGGUCCCAGGCCCACACCCGGGGGGCCUCUGUUCAUAGCGGCACAUGCAUUUCCCCACCGCGUCUUGUCUGCAGCU: 0.528
AAUAGCUGAGGGAAAAGGGAGGGAAAAGGAAGUUAUGGGAAUACCUGUGGUGGUUGUGAUCCCUAGGUCUUGGGAGCUCUUGGAGGUGUCUGUAUCAGUGGAUUUCCCAU: 0.821
CCACCCUGCCCCCACCACAACUCUCUCUUCAGCCACCAUUGCUACCAGGAGAACCACUACAUGCAACUCACGCCCCUUGCCCUAUCACAGGGUUGGGCCUAGACGGAGUC: 0.948
UGGAGCGUGUGGGCCAUCCCAAGGAGCGAUGCUUCACCUUCUGAUGGCUGGACGCUGGCCAAGCCUGUGCCUGCUGCUCACGCACUCACCACAACCACCUGUCCACCCCU: 0.899
AAGGAAUUUAUUACAAUGUAUCUUUAUUAAAACAAAAGGGUGUAUAGUGUUCACAAACUGUGAAAAUAGUGUAAGAACUGUACAUUGUGAGCUCUGGUUAUUUUUCUCUU: 0.422
AUGUUUUAUUCAAUGUAAAGGAAGACCAAACCAUGUACCUUAUGAAGACCUUUGUUUUAAGACUUCCACACACCAAGGCUACAAUGACUGUUAACCUGGAGGAAGUCUCU: 0.456

Series 6 — technique: universal PBM; form: double-stranded DNA, one strand shown; matrix: in vitro; concentration: not given; reading: higher = stronger binding; endpoint: E-score
Target: Sal-like protein 4, full length isoform B (SALL4, Homo sapiens, UniProt Q9UJQ4-2, residues 1-616)
Setting: 8-mer, flanks averaged, mean of replicates
GAGTCCTA: -0.0934
AGATGCCC: -0.153
AGTATCCA: 0.0362
GTCCCGTA: -0.0571
AGGGTCTC: -0.146
CGTGGTAA: 0.0318
AGAAATGC: 0.071
GGCAGATA: -0.0508
GCAACACA: -0.0375
ATGTGGTG: -0.0138
AGACGCGC: -0.241
ACTCACTC: -0.0158
ACAGAGGG: -0.283
GACTTGGA: -0.0992
AGTCCCAG: -0.236
GCCACGGC: -0.399
GTCGCGTA: -0.0323
AACACTGA: 0.0887
TCGTTCAA: 0.172
ATGTTTGG: 0.207
GGCGGAAC: -0.243
GCCGTAGA: -0.171
CTCTTCTC: -0.0606
CTTGTGGA: -0.169

A few entries again (series 4):
AACAATTA: -0.0756
ACTCAGGA: -0.0696
CAAAGACG: -0.0742
GCAATTGC: 0.138
CATTAGGG: -0.111
CGTCTGTA: 0.00569
ACATCGTG: -0.00827
ATCGGTTA: 0.0314
TAATGAGA: -0.126
GTATGCTA: 0.00547
